Published values collected from several papers.
A part holds a random share of what one study measured.

Study 1 — method: protein binding microarray; form: double-stranded DNA, one strand shown; medium: in vitro; tested at: not given; baseline: not given; reading: higher = stronger binding
Target: Histone acetyltransferase KAT6A, winged helix 1, GST fusion (KAT6A, Homo sapiens, UniProt Q92794, residues 1-85)
Setting: 8-mer, flanks averaged, mean of 2 arrays, mostly near background
Construct (chain): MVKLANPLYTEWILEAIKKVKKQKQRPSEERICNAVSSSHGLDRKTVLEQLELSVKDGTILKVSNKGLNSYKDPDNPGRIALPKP
Oligonucleotide | E-score
CATGCCCA | -0.204
CCTTCCCC | -0.0102
CGTATTCA | 0.177

Study 2 — method: RNA Bind-n-Seq; form: RNA; medium: in vitro; tested at: 1 µM; setting: whole 134-nt RNA, ends assumed; added: 150 mM KCl; baseline: input library; reading: higher = stronger binding
Target: Ras GTPase-activating protein-binding protein 1, C-terminal RGG region (G3BP1, Homo sapiens, UniProt Q13283)
Sequence of UniProt Q13283 (whole entry, looked up): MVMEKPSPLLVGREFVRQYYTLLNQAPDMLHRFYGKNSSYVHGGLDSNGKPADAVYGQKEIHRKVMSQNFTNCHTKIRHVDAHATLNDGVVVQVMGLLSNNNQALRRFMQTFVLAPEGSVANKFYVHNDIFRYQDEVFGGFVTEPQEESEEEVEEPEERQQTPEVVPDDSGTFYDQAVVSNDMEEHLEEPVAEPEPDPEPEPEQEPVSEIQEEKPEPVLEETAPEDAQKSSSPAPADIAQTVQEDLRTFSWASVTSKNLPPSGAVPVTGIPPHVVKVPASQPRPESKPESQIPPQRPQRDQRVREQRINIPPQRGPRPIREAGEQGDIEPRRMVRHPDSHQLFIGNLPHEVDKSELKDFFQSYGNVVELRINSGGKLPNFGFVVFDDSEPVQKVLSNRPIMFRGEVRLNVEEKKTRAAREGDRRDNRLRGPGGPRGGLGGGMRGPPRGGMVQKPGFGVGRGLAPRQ
Oligonucleotide | log2 enrichment
GGGAGUUCUACAGUCCGACGAUCUAACUUUAGAGGAGGAUCCGAUGGAUAUGGCAGUGGACGUGGAUUUGGGGAUGGCUAUAAUGGGUAUGGAGGAGGACCUGGAGGUGGCAAUGGAAUUCUCGGGUGUCAAGG | -1.22
GGGAGUUCUACAGUCCGACGAUCUAACUUUAGAGGAGGAUCUGAUGGAUAUGGCAGUGGACGUGGAUUUGGGGAUGGCUAUAAUGAGUAUGGAGGAGGACCUGGAGGUGGCAAUGGAAUUCUCGGGUGUCAAGG | -0.83
GGGAGUUCUACAGUCCGACGAUCUGGCCCUGGUGGCAUGCGGGGAGGAAGAGGUGGCCUCACGGAUCGUGGUGGUCCCGGUGGAAUGUUCAGAGGUGGCCGUGGUGGAGACAGUGGAAUUCUCGGGUGUCAAGG | 2.15

Study 3 — method: RNA Bind-n-Seq; form: RNA; medium: in vitro; tested at: 365 nM; baseline: no-protein control; reading: higher = stronger binding
Target: RNA binding protein fox-1 homolog 2, RRM domain, GST-SBP tag (RBFOX2, Homo sapiens, UniProt O43251-10, residues 100-194)
Setting: natural RNA segment, single round, ends assumed
Residues (chain): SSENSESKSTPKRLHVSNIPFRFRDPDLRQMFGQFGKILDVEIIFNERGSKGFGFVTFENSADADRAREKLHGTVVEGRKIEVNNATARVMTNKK
Oligonucleotide | RBNS enrichment (R)
GGGAGUUCUACAGUCCGACGAUCUAAAUAAAACAGUUAUCACAUUCCCACAACAACCUAAACACAGACUACCUCUCCCCUCAUCAGAUCAGCUAAGCUGUGAGGUUCUAAGAGGUCUAGGUGUGUUUAAAUUUUGGAAUUCUCGGGUGCCAA | 0.359
GGGAGUUCUACAGUCCGACGAUCAGGCAUCUAUGGAGAUUAUUUUUUUGCUUCAUUUUAUAAAGUUGUAUUUAGAAAAGUCUUAAGUAUUGUGCUUUGUAAAGAAGAUGAUUAAAAUGAAAUUUUGUGAGAAUUGGAAUUCUCGGGUGCCAA | 1.01
GGGAGUUCUACAGUCCGACGAUCAAUGAAAGAAAGGAAUUGUAUUUACCUUUUAUAAUUAUUAUUAGUGUGGGUAUGGCUAAUGAGUUCUGAUUCACCCACGAAGGUUACAUUUAUGCUGAAUACAUUUGUAAUGGAAUUCUCGGGUGCCAA | 0.637
GGGAGUUCUACAGUCCGACGAUCAAAGCAAUUUUUUUCUUUUCGAUUUAAUGAAGUAUUGCUAGCUGAAGCCAGUUUGACAUAGAGAGAUGUCAGAUUGAUUUGAAAGGUGUGCAGCCUGAUUUAAAACCAAAUGGAAUUCUCGGGUGCCAA | 0.716

Other studies, line by line
Substance | target | test | test system | conditions | scale | measurement | value
PhoQ, residues 284 288 289 292 302 303 AQGLTV | PhoP, residues 12 14 15 18 19 TTLRV (Escherichia coli, UniProt P23836) | Sort-seq, item: YFP reporter | E. coli | PhoQ-PhoP variant library, added: 10 µM Mg2+ | baseline: high Mg2+ state, higher = stronger signaling | fold induction | 8.67
